Assay results pooled from the literature.
Protocols differ between the studies behind these lines. ± gives the spread as reported.
PSMB5: Proteasome Macropain subunit MB1 (PSMB5, Homo sapiens, UniProt P28074)
Sequence of UniProt P28074 (whole entry, looked up): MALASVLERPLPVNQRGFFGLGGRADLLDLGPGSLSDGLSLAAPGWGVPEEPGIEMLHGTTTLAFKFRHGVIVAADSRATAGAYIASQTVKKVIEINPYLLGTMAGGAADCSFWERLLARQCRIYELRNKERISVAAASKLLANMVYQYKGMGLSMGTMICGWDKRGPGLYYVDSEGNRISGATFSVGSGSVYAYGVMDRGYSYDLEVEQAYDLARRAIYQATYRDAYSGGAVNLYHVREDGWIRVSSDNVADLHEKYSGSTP
Sequence of UniProt P37023 (whole entry, looked up): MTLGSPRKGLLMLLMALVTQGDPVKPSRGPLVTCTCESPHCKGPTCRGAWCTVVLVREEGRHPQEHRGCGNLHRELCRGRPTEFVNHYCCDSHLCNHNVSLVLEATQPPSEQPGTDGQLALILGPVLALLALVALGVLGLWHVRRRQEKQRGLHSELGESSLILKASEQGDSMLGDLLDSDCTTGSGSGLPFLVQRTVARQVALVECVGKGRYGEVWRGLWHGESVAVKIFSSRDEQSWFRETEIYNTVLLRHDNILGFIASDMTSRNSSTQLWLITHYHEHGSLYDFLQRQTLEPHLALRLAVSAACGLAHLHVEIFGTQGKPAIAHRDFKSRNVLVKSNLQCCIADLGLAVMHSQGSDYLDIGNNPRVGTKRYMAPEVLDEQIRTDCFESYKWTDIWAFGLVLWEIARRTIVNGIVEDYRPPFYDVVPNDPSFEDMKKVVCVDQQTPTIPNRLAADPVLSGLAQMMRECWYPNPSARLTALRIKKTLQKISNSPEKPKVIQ
Sequence of UniProt P45984 (whole entry, looked up): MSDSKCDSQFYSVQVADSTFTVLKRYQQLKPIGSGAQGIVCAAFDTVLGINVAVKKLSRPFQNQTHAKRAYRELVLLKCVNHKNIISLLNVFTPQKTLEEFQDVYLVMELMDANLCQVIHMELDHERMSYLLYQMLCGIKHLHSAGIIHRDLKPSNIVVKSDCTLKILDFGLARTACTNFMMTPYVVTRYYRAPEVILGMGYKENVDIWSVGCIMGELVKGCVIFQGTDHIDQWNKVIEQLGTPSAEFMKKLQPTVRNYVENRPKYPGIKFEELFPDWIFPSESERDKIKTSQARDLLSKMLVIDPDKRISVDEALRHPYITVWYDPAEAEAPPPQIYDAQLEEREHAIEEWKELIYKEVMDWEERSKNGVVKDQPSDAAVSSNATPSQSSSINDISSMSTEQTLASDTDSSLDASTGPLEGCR
Sequence of UniProt Q99436 (whole entry, looked up): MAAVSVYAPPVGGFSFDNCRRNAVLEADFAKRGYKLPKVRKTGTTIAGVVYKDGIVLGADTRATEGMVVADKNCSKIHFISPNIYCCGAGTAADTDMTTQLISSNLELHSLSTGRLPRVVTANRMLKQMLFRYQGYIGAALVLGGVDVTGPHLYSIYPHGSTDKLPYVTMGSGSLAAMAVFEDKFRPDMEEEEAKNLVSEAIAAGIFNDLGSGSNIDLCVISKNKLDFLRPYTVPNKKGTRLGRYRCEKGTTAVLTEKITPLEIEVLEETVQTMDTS
Sequence of UniProt P48729 (whole entry, looked up): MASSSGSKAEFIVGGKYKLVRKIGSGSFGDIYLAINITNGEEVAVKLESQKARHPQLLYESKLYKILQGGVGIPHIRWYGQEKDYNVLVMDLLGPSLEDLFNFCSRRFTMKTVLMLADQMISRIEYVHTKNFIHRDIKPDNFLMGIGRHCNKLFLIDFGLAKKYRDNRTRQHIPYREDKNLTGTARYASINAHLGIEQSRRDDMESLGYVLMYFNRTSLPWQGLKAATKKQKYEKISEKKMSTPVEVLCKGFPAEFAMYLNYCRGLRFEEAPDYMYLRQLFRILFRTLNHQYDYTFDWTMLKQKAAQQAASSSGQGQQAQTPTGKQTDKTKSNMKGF
Sequence of UniProt P10632 (whole entry, looked up): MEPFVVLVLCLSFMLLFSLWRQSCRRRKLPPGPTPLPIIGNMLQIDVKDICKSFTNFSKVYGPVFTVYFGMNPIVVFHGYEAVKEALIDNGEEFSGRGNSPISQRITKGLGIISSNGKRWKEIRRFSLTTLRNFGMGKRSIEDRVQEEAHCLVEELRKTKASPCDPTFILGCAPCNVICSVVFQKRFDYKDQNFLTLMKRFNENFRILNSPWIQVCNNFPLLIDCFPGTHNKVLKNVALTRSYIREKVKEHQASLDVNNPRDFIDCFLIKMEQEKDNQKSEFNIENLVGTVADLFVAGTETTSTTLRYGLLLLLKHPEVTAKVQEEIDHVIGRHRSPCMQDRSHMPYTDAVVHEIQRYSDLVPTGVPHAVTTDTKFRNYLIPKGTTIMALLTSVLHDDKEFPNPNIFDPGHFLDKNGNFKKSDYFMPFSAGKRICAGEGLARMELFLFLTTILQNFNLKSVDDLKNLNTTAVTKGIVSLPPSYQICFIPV
Sequence of UniProt P14061 (whole entry, looked up): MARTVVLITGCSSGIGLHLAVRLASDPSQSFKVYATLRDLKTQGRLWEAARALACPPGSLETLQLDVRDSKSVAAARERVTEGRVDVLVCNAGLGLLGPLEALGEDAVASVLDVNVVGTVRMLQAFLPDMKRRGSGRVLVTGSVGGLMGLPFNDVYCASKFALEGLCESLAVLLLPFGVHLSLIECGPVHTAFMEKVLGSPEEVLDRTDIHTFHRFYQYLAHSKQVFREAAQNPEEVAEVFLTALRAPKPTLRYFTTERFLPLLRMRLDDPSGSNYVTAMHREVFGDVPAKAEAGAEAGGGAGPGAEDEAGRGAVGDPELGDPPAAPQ
Sequence of UniProt P54132 (whole entry, looked up): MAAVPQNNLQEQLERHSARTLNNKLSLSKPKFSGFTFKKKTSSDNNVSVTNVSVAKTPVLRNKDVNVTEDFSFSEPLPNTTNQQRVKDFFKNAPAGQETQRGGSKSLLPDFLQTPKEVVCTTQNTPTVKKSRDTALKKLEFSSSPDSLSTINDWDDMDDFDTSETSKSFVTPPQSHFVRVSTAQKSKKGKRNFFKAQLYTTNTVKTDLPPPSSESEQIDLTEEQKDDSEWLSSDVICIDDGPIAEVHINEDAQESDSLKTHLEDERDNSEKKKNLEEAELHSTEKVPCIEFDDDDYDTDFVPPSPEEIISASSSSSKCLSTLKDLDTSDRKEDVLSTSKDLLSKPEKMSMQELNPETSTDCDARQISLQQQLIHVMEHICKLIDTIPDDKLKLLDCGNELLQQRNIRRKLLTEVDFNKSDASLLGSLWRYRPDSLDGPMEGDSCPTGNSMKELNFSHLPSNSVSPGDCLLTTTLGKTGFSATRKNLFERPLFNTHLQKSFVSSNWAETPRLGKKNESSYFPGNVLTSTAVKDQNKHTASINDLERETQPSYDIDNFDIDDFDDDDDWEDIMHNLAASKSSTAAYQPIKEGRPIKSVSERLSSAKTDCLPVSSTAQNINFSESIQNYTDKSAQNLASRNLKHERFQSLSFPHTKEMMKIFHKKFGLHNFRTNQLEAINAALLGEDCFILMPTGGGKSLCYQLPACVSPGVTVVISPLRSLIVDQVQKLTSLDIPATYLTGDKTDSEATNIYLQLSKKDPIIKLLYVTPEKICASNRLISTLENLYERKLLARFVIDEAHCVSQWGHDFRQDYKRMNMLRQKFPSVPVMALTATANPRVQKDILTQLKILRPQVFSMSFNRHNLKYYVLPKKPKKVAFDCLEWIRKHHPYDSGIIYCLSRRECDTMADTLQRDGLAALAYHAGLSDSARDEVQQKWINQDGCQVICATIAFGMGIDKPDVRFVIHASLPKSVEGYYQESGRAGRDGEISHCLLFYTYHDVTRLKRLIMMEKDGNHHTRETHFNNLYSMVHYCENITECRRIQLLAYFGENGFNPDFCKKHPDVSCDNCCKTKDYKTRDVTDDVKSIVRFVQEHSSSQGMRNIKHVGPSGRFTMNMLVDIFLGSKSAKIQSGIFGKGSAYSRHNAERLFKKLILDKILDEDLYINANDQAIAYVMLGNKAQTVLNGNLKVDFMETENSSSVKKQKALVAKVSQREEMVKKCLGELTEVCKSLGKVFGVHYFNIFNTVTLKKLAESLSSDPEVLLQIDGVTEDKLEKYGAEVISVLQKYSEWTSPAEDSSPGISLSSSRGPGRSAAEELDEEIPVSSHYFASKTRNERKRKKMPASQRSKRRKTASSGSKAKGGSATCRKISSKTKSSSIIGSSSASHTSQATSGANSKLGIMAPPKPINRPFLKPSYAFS
Sequence of UniProt C7C422 (whole entry, looked up): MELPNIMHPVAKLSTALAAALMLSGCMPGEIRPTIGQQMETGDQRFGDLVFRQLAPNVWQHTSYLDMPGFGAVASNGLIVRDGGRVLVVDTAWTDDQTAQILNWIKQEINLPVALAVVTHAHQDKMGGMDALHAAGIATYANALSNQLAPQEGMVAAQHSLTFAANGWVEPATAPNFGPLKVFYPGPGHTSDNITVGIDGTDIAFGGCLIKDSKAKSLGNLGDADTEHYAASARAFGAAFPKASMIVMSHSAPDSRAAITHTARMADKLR
Sequence of UniProt Q02083 (whole entry, looked up): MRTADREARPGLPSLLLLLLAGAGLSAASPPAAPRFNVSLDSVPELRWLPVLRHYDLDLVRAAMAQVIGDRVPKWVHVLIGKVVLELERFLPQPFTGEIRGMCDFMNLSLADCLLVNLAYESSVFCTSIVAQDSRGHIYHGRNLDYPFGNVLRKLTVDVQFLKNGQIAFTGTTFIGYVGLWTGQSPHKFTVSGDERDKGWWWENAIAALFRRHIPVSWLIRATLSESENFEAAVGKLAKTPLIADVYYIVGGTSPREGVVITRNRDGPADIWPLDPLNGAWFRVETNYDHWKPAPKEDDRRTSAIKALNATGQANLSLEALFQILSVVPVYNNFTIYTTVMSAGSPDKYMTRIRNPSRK
Sequence of UniProt P49720 (whole entry, looked up): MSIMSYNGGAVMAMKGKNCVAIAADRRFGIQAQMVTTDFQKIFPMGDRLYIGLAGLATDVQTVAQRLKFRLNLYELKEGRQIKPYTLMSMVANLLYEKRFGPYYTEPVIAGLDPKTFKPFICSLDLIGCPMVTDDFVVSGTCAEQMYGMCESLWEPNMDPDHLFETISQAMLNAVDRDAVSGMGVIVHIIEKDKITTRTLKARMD

| Compound | target | test | system | setting | scale | IC50 |
| --- | --- | --- | --- | --- | --- | --- |
| C=C(NC(=O)C(=C)NC(=O)c1csc(C2=NC3c4csc(n4)C4NC(=O)c5csc(n5)C(C(C)(O)C(C)O)NC(=O)C5CSC(=N5)C(=CC)NC(=O)C(C(C)O)NC(=O)c5csc(n5)C3(CC2)NC(=O)C(C)NC(=O)C(=C)NC(=O)C(=C)NC(=O)C(C(C)CC)NC2C=Cc3c(C(C)O)cc(nc3C2O)C(=O)OC4C)n1)C(N)=O (centres unmarked) | PSMB5 | chymotrypsin-like activity, inhibitor | purified human 20S proteasome | 37 °C, 15 min preincubation, added: Suc-Leu-Leu-Val-Tyr-AMC | – | 0.99 ± 0.01 µM |
| COc1ccc(-c2cc(C(F)(F)F)nc(S(=O)(=O)NCC(=O)Nc3ccc(C)cc3)n2)cc1 | RecQ-like DNA helicase BLM (BLM, Homo sapiens, UniProt P54132) | enzyme activity, inhibitor, ADP detection | – | – | – | > 50 µM |
| Cc1nnc(-c2cccc(Nc3ncnn4ccc(CN5CCC(N)CC5)c34)c2)s1 | AP2-associated protein kinase 1 (AAK1, Homo sapiens, UniProt Q2M2I8) | enzyme activity, inhibitor | – | – | – | 0.21 µM |
| C=C(NC(=O)C(=C)NC(=O)c1csc(C2=NC3c4csc(n4)C4NC(=O)c5csc(n5)C(C(C)(O)C(C)O)NC(=O)C5CSC(=N5)C(=CC)NC(=O)C(C(C)O)NC(=O)c5csc(n5)C3(CC2)NC(=O)CNC(=O)C(=C)NC(=O)C(C)NC(=O)C(C(C)CC)NC2C=Cc3c(C(C)O)cc(nc3C2O)C(=O)OC4C)n1)C(N)=O (centres unmarked) | PSMB5 | chymotrypsin-like activity, inhibitor | purified 20S proteasome | 15 min preincubation, 37 °C, added: Suc-Leu-Leu-Val-Tyr-AMC substrate | – | 0.77 ± 0.04 µM |
| CCS(=O)(=O)c1ccccc1CN1CCN(c2nc3ccc(F)cc3s2)CC1 | N-acylethanolamine-hydrolyzing acid amidase (NAAA, Homo sapiens, UniProt Q02083) | enzyme activity, inhibitor | HEK293 cells expressing NAAA | – | – | 1.82 ± 0.32 µM |
| O=C(O)Cc1cc2c(cc1C(=O)c1ccc(Cl)cc1Cl)OCO2 | Glutamate receptor 1 (Gria1, Rattus norvegicus, UniProt P19490) | ion current, patch clamp | – | pH 7.4 | – | 4.15 µM |
| COc1ccc2c(c1OCc1ccccc1)C[C@@H](C(=O)O)N(c1nc3ccc(C#N)cc3o1)C2 | Cytochrome P450 2C8 (CYP2C8, Homo sapiens, UniProt P10632) | enzyme activity, inhibitor | human, liver microsomes | 15 min, pH 7.4 | – | > 50 µM |
| Cc1cccn2nc(-c3ccc(F)cc3)c(-c3ccncc3)c12 | Casein kinase I isoform alpha (CSNK1A1, Homo sapiens, UniProt P48729) | enzyme activity, inhibitor, ADP detection | – | – | – | > 15 µM |
| CNC(=O)C(CS)N1C(=O)c2ccc(N(C)C)cc2C1=O (centres unmarked) | Metallo-beta-lactamase type 2 (blaNDM-1, Klebsiella pneumoniae, UniProt C7C422) | enzyme activity, inhibitor | – | pH 7 | – | 8.2 µM |
| COc1cc(-c2nc3ccc(C(=O)NCCN4CCN(C5CCCCC5)CC4)cc3n2C2CCC2)cc(OC)c1OC | Activin receptor type-1-like (ACVRL1, Homo sapiens, UniProt P37023) | target engagement in cells, BRET | – | – | – | > 30 µM |
| C[C@]12CC[C@@H]3c4ccc(O)cc4CC[C@H]3[C@@H]1[C@H](OCC(=O)N1CCOCC1)CC2=O | 17-beta-hydroxysteroid dehydrogenase type 1 (HSD17B1, Homo sapiens, UniProt P14061) | enzyme activity, inhibitor, radiometric | – | – | – | 5.6 to 7 µM |
| Cc1cc(NC(=O)c2cccc(-n3cc(NC(=O)Nc4ccccc4)cn3)c2)ccn1 | Mitogen-activated protein kinase 9 (MAPK9, Homo sapiens, UniProt P45984) | enzyme activity, inhibitor | – | – | – | 0.132 µM |
| N#Cc1c(N)nc(N)nc1OCC1CCCCC1 | Serine/threonine-protein kinase mTOR (MTOR, Homo sapiens, UniProt P42345) | kinase activity, inhibitor, TR-FRET | – | added: ATP 10 µM | up to highest concentration | > 20 µM |
| Cc1ccc(CNC(=O)C(CCc2ccccc2)NC(=O)C(NC(=O)c2ccc(OCc3ccc(C(C)(C)C)cc3)cc2)C(C)O)cc1 (centres unmarked) | Proteasome subunit beta type-3/PSMB7 (Homo sapiens, UniProt P49720+Q99436) | inhibitor | – | – | – | > 100 µM |

Repeated from above:
| Compound | target | test | system | setting | scale | IC50 |
| --- | --- | --- | --- | --- | --- | --- |
| N#Cc1c(N)nc(N)nc1OCC1CCCCC1 | Serine/threonine-protein kinase mTOR (MTOR, Homo sapiens, UniProt P42345) | kinase activity, inhibitor, TR-FRET | – | added: ATP 10 µM | up to highest concentration | > 20 µM |
| Cc1ccc(CNC(=O)C(CCc2ccccc2)NC(=O)C(NC(=O)c2ccc(OCc3ccc(C(C)(C)C)cc3)cc2)C(C)O)cc1 (centres unmarked) | Proteasome subunit beta type-3/PSMB7 (Homo sapiens, UniProt P49720+Q99436) | inhibitor | – | – | – | > 100 µM |
